Experimental data from different studies.
Protocols differ between the studies behind these lines. Values joined by “and” are separate records of one study, mostly repeats; a detail may differ. ± marks the error that the study gave.

| SMILES | cell line | test | test system | conditions | scale | quantity | value |
| --- | --- | --- | --- | --- | --- | --- | --- |
| CC(ON1C(C)(C)CCCC1(C)C)c1ccc(NC(=O)[C@@H](NC(=O)[C@@H]2CCCN2C(=O)[C@H](C)NC(=O)[C@H](C)NC(=O)CCC(=O)O)C(C)C)cc1 (stereo partly shown) | U87 | PrestoBlue |  | without HNE |  | LC50 | 150 µM |
| C=CCN1C(=O)C(CC=C)(C(=O)OCC)Oc2cc(F)ccc21 (stereo not shown) | HEK293T | cytotoxicity, CCK-8 |  | 6.25 µM, 72 h |  | inhibition | 0.04 ± 0.13% |
| COc1ccccc1-c1ccncc1C(=O)Nc1nnc(OCc2ccc(Cl)cc2)s1 | RPE-1 BRCA1 WT parental |  |  | 2 µM, average of 2 runs | baseline: untreated | colony survival | 87.9% |
| CC(C)[C@H](NC(=O)[C@H](CCCNC(=N)N)NC(=O)[C@@H]1CCCN1C(=O)[C@@H](NC(=O)[C@H](C)NC(=O)[C@H](Cc1ccc(O)cc1)NC(=O)[C@H](CCC(N)=O)NC(=O)[C@H](CCCCN)NC(=O)[C@H](CCCNC(=N)N)NC(=O)[C@@H]1CCCN1C(=O)[C@H](CCC(=O)O)NC(=O)[C@@H](NC(=O)[C@H](C)N)[C@@H](C)O)[C@@H](C)O)C(=O)N[C@@H](Cc1ccccc1)C(=O)N[C@@H](Cc1c[nH]c2ccccc12)C(=O)N[C@H](C(=O)N[C@@H](CC(=O)O)C(=O)N[C@@H](C)C(=O)N1CCC[C@H]1C(=O)NCC(=O)NCCOCCOCCOCCOCCOCCOCCOCCOCCOCCOCCOCCOCCC(=O)N[C@@H](CS)C(N)=O)[C@@H](C)O | H322 | phage binding |  | 10 min, 37 °C | baseline: control phage | selectivity ratio | 3.8 ± 1.1 |
| O=C(C[Se]C(=O)c1ccco1)Nc1cccc(C(F)(F)F)c1 | NCI60 renal subpanel | cell growth |  | 10 µM, 48 h, one-dose |  | mean growth percent | -50.5% |
| Cc1cc(Oc2nc(N3CC[C@@H](c4ccncc4)C3)ncc2F)[nH]n1 | EJ-28 | cell proliferation | bladder cancer |  |  | IC50 | > 100 µM |
| COc1ccc2c(c1)c(CC(=O)[Se]CC(=O)Nc1cccc(C(F)(F)F)c1)c(C)n2C(=O)c1ccc(Cl)cc1 | NCI60 ovarian subpanel | cytotoxicity, inhibitor |  | five-dose |  | CC50 | 9.05 µM |
| C#CCN1C(=O)C(CC#C)(C(=O)OCC)Oc2ccccc21 (stereo not shown) | HEK293T | cytotoxicity, CCK-8 |  | 3.13 µM, 72 h |  | inhibition | 0.08 ± 0.28% |
| CC(C)(C)C(=O)OCOP(=O)(OCOC(=O)C(C)(C)C)C1CCCN(O)C1=O (stereo not shown) | PC-3 |  |  |  |  | log TGI | > -4 log M |
| O=C(C[Se]C(=O)c1cccs1)Nc1cccc(C(F)(F)F)c1 | NCI60 renal subpanel | cell growth, inhibitor |  | five-dose |  | GI50 | 1.7 µM |
| CC(C)CC(O)(CC(C)C)c1cn(C(=O)N2CCCC2)nn1 | mouse T-cells | SILAC proteomics, item: PAIP2B |  | 1 nM, 6 h, unit not given | baseline: DMSO | protein level | 0.92 |
| Cc1cc(Nc2nc(C[C@@]3(C(=O)O)CCN(Cc4cccc(Cl)c4F)[C@H](C)C3)cc(C)c2F)[nH]n1 | EFO-27 | cell growth or viability, ATP luminescence |  | 5 days |  | IC50 | 0.234 µM |
| CSCC[C@H](NC(=O)[C@@H](NC(=O)[C@H](CCC(N)=O)NC(=O)[C@H](CO)NC(=O)[C@@H](N)C(C)C)[C@@H](C)O)C(=O)N[C@@H](CCCNC(=N)N)C(=O)N[C@@H](CCC(N)=O)C(=O)N[C@H](C(=O)N[C@@H](C)C(=O)N[C@H](C(=O)N1CCC[C@H]1C(=O)N[C@@H](CC(C)C)C(=O)N[C@@H](CC(C)C)C(=O)N[C@@H](Cc1c[nH]c2ccccc12)C(=O)N[C@@H](Cc1ccccc1)C(=O)N[C@@H](Cc1c[nH]c2ccccc12)C(=O)N[C@H](C(=O)NCC(=O)N[C@@H](CO)C(=O)N[C@@H](CC(C)C)C(=O)NCCOCCOCCOCCOCCOCCOCCOCCOCCOCCOCCOCCOCCC(=O)N[C@@H](CS)C(N)=O)[C@@H](C)O)C(C)C)[C@@H](C)O | PANC-1 pancreatic cancer | cell binding, phage binding, item: output/input phage |  | 10 min, 37 °C | baseline: control phage | selectivity ratio | 19 ± 6.6 |
| O=C(C[Se]C(=O)c1ccccc1)Nc1cccc(C(F)(F)F)c1 | NCI60 NSCLC subpanel | NCI60 five-dose screen |  |  |  | GI50 | 2.28 µM |
| Cc1cccc(-c2cccc(C)n2)n1.Cc1cccc(-c2cccc(C)n2)n1.F[P-](F)(F)(F)(F)F.F[P-](F)(F)(F)(F)F.[Ru+2].c1ccc2c(-c3nc4c5cccnc5c5ncccc5c4[nH]3)cccc2c1 | SK-MEL-28 |  |  | 1% O2, added: blue light 453 nm, 100 J/cm2 | baseline: dark over light EC50 | phototoxicity index | 15 |
| CC(=O)NCSC[C@H](NC(=O)[C@@H]1CCCN1C(=O)[C@H](C)NC(=O)[C@@H](NC(=O)CNC(=O)[C@@H](NC(=O)[C@H](Cc1c[nH]c2ccccc12)NC(=O)[C@H](C)NC(=O)CNC(=O)[C@H](CO)NC(=O)[C@H](C)NC(=O)[C@@H]1CCCN1C(=O)[C@H](Cc1c[nH]c2ccccc12)NC(=O)[C@H](C)NC(=O)[C@H](C)NC(=O)[C@@H](N)Cc1ccc(O)cc1)[C@@H](C)O)[C@@H](C)O)C(=O)N[C@@H](CO)C(=O)N[C@@H](C)C(=O)NCC(=O)N[C@H](C(=O)NCCOCCOCCOCCOCCOCCOCCOCCOCCOCCOCCOCCOCCC(=O)N[C@@H](CS)C(N)=O)[C@@H](C)O | MDA-MB-468 breast cancer | cell binding, phage binding, item: output/input phage |  | 10 min, 37 °C | baseline: control phage | selectivity ratio | 2.6 ± 0.97 |
| CNC(=S)NCCCC[C@H](NC(=O)CCc1ccccc1)C(=O)N[C@@H](CCCNC(=N)N)C(=O)N[C@@H](CC1CCCCC1)C(=O)N[C@H](CCCCN)C(=O)N[C@@H](CC1CCCCC1)C(N)=O | Jurkat | cell growth or viability, MTT |  | 72 h |  | EC50 | 51.2 µM |
| N[C@H](C(=O)N1CCCC1)C1CCN(c2nccc3c(-c4ncc(Cl)cc4Cl)cccc23)CC1 | human neutrophils | protein citrullination, inhibitor, flow cytometry, item: citrullinated proteins |  | 3.16 µM, added: ionomycin |  | inhibition | 70.2% and 70.9% and 68.8% and 71.8% |
| O=C(C[Se]C(=O)c1cc2ccccc2o1)Nc1cccc(C(F)(F)F)c1 | NCI60 NSCLC subpanel | NCI60 five-dose screen |  |  |  | CC50 | 5.91 µM |
| [Cl-].[Cl-].[Ru+2].c1ccc(-c2ccccn2)nc1.c1ccc(-c2ccccn2)nc1.c1ccc2cc3nc4c5cccnc5c5ncccc5c4nc3cc2c1 | SK-MEL-28 | cell growth or viability, resazurin |  | dark |  | EC50 | 120 µM |
| CC(C)Cc1ccc(C(C)C(=O)[Se]CC(=O)Nc2cccc(C(F)(F)F)c2)cc1 (stereo not shown) | NCI60 prostate subpanel (PC-3, DU-145) | cytotoxicity, inhibitor |  | five-dose |  | CC50 | 7.91 µM |
| CC(C)C[C@H](NC(=O)[C@H](CC(=O)O)NC(=O)CNC(=O)[C@@H](N)CCCNC(=N)N)C(=O)N[C@@H](C)C(=O)N[C@H](C(=O)N[C@@H](CC(C)C)C(=O)N[C@@H](CCCNC(=N)N)C(=O)N[C@@H](CCC(N)=O)C(=O)N[C@@H](CC(C)C)C(=O)N[C@@H](C)C(=O)N[C@@H](CCC(N)=O)C(=O)N[C@@H](CCC(=O)O)C(=O)N[C@@H](CC(=O)O)C(=O)NCC(=O)N[C@H](C(=O)N[C@H](C(=O)NCC(=O)N[C@H](C(=O)N[C@@H](CCCNC(=N)N)C(=O)NCCOCCOCCOCCOCCOCCOCCOCCOCCOCCOCCOCCOCCC(=O)N[C@@H](CS)C(N)=O)C(C)C)C(C)C)C(C)C)[C@@H](C)O | H1155 lung large cell carcinoma | cell binding, phage binding, item: output/input phage |  | 10 min, 37 °C | baseline: control phage | selectivity ratio | 2.6 ± 0.49 |
| O=C(O)c1ccc(-c2nc(-c3ccccc3Cl)c3sccn23)cc1 | human CD34+ stem cells | megakaryocyte differentiation, flow cytometry |  | 10 µM, day 7, compound-negative subset, added: thrombopoietin | higher = more expression | CD41a fluorescence intensity | 207000 a.u. and 187000 a.u. and 113000 a.u. and 121000 a.u. and 182000 a.u. and 122000 a.u. and 212000 a.u. |
| O=C(C[Se]C(=O)c1cccnc1Nc1cccc(C(F)(F)F)c1)Nc1cccc(C(F)(F)F)c1 | NCI60 NSCLC subpanel | NCI60 five-dose screen |  |  |  | CC50 | 6.36 µM |
| NC(=O)N/N=C/c1ccc(OCc2ccccc2)cc1 | IMR-32 | item: GPX3 |  | 500 µg/mL, 24 h | higher = more activity | glutathione peroxidase activity (OD450) | 0.349 a.u. |

Some of these lines once more:
| SMILES | cell line | test | test system | conditions | scale | quantity | value |
| --- | --- | --- | --- | --- | --- | --- | --- |
| C#CCN1C(=O)C(CC#C)(C(=O)OCC)Oc2ccccc21 (stereo not shown) | HEK293T | cytotoxicity, CCK-8 |  | 3.13 µM, 72 h |  | inhibition | 0.08 ± 0.28% |
| CC(C)(C)C(=O)OCOP(=O)(OCOC(=O)C(C)(C)C)C1CCCN(O)C1=O (stereo not shown) | PC-3 |  |  |  |  | log TGI | > -4 log M |
| O=C(C[Se]C(=O)c1cccs1)Nc1cccc(C(F)(F)F)c1 | NCI60 renal subpanel | cell growth, inhibitor |  | five-dose |  | GI50 | 1.7 µM |
| CC(C)CC(O)(CC(C)C)c1cn(C(=O)N2CCCC2)nn1 | mouse T-cells | SILAC proteomics, item: PAIP2B |  | 1 nM, 6 h, unit not given | baseline: DMSO | protein level | 0.92 |
